Results of several laboratories.
Each line is one published result; not all experiments were run side by side.
B1: Rep68 C151S (adeno-associated virus 2, UniProt P03132); chain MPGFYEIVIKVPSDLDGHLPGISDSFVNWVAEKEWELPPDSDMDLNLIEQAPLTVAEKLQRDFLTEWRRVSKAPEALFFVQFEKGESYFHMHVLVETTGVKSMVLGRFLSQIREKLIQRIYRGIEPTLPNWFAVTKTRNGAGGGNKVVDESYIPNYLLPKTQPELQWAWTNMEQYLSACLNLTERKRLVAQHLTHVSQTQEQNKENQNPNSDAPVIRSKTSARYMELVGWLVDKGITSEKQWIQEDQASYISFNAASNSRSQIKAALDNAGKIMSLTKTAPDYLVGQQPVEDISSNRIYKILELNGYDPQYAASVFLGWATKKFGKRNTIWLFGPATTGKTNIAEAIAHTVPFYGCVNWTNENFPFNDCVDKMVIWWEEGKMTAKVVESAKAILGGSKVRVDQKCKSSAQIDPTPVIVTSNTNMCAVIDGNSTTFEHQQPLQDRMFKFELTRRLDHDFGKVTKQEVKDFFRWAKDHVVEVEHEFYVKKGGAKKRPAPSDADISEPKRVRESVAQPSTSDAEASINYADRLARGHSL
B2: pyrE R53A/R56A (Burkholderia cenocepacia, UniProt B4E589); chain MTGYDRQSISDTTAKILLEVQAVHFNAEKPFIFTSGWASPVYIDCRKLISYPAVRAALMEMAETTITRDIGFEQIDAVAGGETAGIPFAAWIADRMMVPMQYVRKKPKGFGRNAQIEGHLEEGSRVLLVEDLTTDSRSKINFVNALRTAGATVNHCFVLFHYNIFKESVSVLKDIDVDLHALATWWDVLRVAKASGYFETKTLDEVEKFLHAPAEWSAAHGGATAPKE
B3: Cbx5 (Mus musculus, UniProt Q61686); chain MGKKTKRTADSSSSEDEEEYVVEKVLDRRMVKGQVEYLLKWKGFSEEHNTWEPEKNLDCPELISEFMKKYKKMKEGENNKPREKSEGNKRKSSFSNSADDIKSKKKREQSNDIARGFERGLEPEKIIGATDSCGDLMFLMKWKDTDEADLVLAKEANVKCPQIVIAFYEERLTWHAYPEDAENKEKESAKS
B4: P116 ectodomain 30-957 (Mycoplasma pneumoniae, UniProt P75556); sequence looked up; chain NKTHQVEHESEQSDFQDIRFGLNSVKLPKAQPAAATRITVENGTDKLVNYKSSPQQLFLAKNALKDKLQGEFDKFLSDAKAFPALTADLQEWVDQQLFNPNQSFFDLSAPRSNFTLSSDKKASLDFIFRFTNFTESVQLLKLPEGVSVVVDSKQSFDYYVNASAQKLLVLPLSLPDYTLGLNYMFDHITLNGKVVNKFSFNPFKTNLNLAFSNVYNGVDVFEAQKNLVGKGKYLNTHVKAEDVKKDVNANIKNQFDIAKIIAELMGKALKEFGNQQEGQPLSFLKVMDKVKEDFEKLFNLVRPGLGKFVKDLIQSSSQAENKITVYKLIFDNKKTILNLLKELSIPELNSSLGLVDVLFDGITDSDGLYERLQSFKDLIVPAVKTNEKTAALSPLIEELLTQKDTYVFDLIQKHKGILTNLLKNFLADFQKSTPFMADQVAIFTELFDNEGAFDLFGEADFVDKIAELFLTKRTVKNGEKIETKDSLLVTSLKSLLGEKVAALGDLLDSYIFKNELLNRSVEVAKAEAKDTKGATDYKKEQAKALKKLFKHIGENTLSKTNLDKITLKEVKNTENVELEETETTLKVKKLDVEYKVELGNFEIKNGLIKAMLEFLPDTKDLETTLDKLLFKGESYKAMKDKYIKEGFPGYGWAKGVVPGAFESIENTFKSAIDKTKSIRDLFGDMLFGNDLSSVKETDSFITLGGSFDIKYGGENLNVLPAYYSLINSEIGYQIIGVDTTIDATKVKVELKNKEYKGKSPAINGQVKLSQSFFNVWTNMFDSITKQIFQKKYEFKDNIQVFARNEDNTSRLELDISDPEQRVIPFAFVDGFGIQLKAVDKNITKEAGNTEPKSPVIQLYEALNKEKDQKQQSKQSPKQLDTKTQLGYLLKLGDNWSKDDYKSLIDDTIINNNYLEASFNSKITVDRLG
B5: fphE (Staphylococcus aureus, UniProt Q2FDS6); sequence looked up; chain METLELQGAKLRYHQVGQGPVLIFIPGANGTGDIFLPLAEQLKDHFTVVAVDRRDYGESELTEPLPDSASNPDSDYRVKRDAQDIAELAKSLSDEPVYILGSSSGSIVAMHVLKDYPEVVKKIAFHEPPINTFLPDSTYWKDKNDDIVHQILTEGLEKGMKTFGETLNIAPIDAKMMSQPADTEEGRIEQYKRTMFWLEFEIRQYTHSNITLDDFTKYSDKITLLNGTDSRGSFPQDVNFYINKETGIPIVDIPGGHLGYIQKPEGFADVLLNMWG
B6: gpI (bacteriophage lambda, UniProt P03730); sequence looked up; chain MAATHTLPLASPGMARICLYGDLQRFGRRIDLRVKTGAEAIRALATQLPAFRQKLSDGWYQVRIAGRDVSTSGLTAQLHETLPDGAVIHIVPRVAGAKSGGVFQIVLGAAAIAGSFFTAGATLAAWGAAIGAGGMTGILFSLGASMVLGGVAQMLAPKARTPRIQTTDNGKQNTYFSSLDNMVAQGNVLPVLYGEMRVGSRVVSQEISTADEGDGGQVVVIGR
B7: Tad2 1-89 (Bacillus phage SPO1, UniProt B6V311); chain MKTKMSFGEALEVLKQGMQVYRSGWNGKNMFLFLKSSDALASDFGFGFGEYINEPVFGNIIFIKTADNKIHAWVPSQTDVLAEDWDIVS
B8: panD F101A (Mycobacterium abscessus, UniProt B1MGV7); chain MMFRTMMKSKIHRATVTHADLHYVGSVTIDPDLMEAADLLEGEQVTIVDIDNGARLETYAITGTRGSGVIGINGAAAHLVHPGDLVIIIAYGVMTDEEARAATPRVVFVDSDNKQVELGEHSDDPAYVPENFGLVSPRGLV
UniProt P05030, sequence (whole entry, looked up): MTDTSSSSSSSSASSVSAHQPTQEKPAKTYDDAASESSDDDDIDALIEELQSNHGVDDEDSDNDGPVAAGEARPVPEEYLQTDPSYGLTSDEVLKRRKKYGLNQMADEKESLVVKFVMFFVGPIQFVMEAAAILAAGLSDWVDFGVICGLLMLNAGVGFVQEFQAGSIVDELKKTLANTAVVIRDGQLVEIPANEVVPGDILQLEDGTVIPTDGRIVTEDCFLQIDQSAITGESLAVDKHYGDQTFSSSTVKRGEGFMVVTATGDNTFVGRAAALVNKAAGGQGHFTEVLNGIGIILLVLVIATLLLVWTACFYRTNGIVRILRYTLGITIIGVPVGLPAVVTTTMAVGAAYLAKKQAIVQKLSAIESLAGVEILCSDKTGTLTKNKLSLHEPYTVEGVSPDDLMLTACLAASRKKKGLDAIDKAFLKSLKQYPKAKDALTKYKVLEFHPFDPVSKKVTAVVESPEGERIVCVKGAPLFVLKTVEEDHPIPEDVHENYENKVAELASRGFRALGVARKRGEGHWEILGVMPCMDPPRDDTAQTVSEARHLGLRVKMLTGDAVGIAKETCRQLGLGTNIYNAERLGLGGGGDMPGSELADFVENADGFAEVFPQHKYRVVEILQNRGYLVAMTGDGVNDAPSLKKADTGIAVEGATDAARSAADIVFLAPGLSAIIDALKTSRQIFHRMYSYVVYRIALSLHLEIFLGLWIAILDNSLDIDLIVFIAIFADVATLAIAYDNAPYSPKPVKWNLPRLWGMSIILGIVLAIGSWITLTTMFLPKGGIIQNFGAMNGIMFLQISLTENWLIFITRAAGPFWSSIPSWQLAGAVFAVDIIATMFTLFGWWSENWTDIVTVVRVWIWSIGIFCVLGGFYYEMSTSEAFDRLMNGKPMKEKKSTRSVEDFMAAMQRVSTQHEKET
UniProt P33650, sequence (whole entry, looked up): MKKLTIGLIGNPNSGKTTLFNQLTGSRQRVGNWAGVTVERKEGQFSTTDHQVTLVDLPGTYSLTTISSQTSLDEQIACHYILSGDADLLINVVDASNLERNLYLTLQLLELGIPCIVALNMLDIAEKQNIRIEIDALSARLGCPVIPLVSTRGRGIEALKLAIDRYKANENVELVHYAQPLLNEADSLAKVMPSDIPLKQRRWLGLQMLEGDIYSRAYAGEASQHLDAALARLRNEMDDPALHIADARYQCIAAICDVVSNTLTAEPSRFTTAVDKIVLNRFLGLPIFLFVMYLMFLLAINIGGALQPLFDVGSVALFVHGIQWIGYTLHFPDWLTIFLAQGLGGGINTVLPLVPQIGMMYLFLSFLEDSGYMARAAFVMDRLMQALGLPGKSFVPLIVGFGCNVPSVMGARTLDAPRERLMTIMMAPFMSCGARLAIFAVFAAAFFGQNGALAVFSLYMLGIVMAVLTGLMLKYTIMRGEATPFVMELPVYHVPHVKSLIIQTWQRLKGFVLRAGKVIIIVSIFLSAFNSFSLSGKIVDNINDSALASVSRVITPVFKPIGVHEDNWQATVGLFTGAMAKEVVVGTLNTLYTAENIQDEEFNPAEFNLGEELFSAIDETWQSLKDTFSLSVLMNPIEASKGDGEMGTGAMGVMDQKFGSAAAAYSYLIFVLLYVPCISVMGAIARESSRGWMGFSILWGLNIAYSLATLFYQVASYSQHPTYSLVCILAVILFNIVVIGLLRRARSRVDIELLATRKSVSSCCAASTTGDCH

Molecule | tested on | test | test system | setting | how to read | quantity | value
codY (Clostridioides difficile, UniProt Q18BE1) | itself | SEC |  |  |  | subunits per oligomer | 2
ariA (Escherichia coli, UniProt A0ABF7PQ30) | itself | SEC-MALS |  |  |  | subunits per oligomer | 6
B1 (Rep68 C151S) | itself | averages, 2D class, cryo-EM |  |  |  | subunits per oligomer | 7
PMA1 (Saccharomyces cerevisiae, UniProt P05030) | itself | SEC |  |  |  | subunits per oligomer | 6
B2 (pyrE R53A/R56A) | itself | SEC |  |  |  | subunits per oligomer | 2
feoB (Escherichia coli, UniProt P33650) | itself | SEC |  |  |  | subunits per oligomer | 18
B3 (Cbx5) | itself | SEC-SAXS |  |  |  | subunits per oligomer | 2
B4 (P116 ectodomain 30-957) | itself | 2D classification cryo-EM |  |  |  | subunits per oligomer | 2
insulin human |  | measured: NRGN mRNA | uninfected mouse, brain | i.p., dose not given | baseline: PBS | fold change | 0.849
B5 (fphE) | itself | SEC |  |  |  | subunits per oligomer | 2
B6 (gpI) | itself | cryo-EM |  |  |  | subunits per oligomer | 3
B7 (Tad2 1-89) | itself | SEC-MALS |  |  |  | subunits per oligomer | 4
B8 (panD F101A) | itself | native gel |  |  |  | subunits per oligomer | 4

A few entries again:
Molecule | tested on | test | test system | setting | how to read | quantity | value
B3 (Cbx5) | itself | SEC-SAXS |  |  |  | subunits per oligomer | 2
ariA (Escherichia coli, UniProt A0ABF7PQ30) | itself | SEC-MALS |  |  |  | subunits per oligomer | 6
